{"data": "Measurements pooled from the literature", "OSBP": "Oxysterol-binding protein 1 (OSBP, Homo sapiens, UniProt P22059)", "ADRA2B": "Alpha-2B adrenergic receptor (ADRA2B, Homo sapiens, UniProt P18089)", "HDAC8": "Histone deacetylase 8 (HDAC8, Homo sapiens, UniProt Q9BY41)", "Tspo": "Translocator protein (Tspo, Rattus norvegicus, UniProt P16257)", "ADRA1A": "Alpha-1A adrenergic receptor (ADRA1A, Homo sapiens, UniProt P35348)", "Replicase polyprotein 1ab main protease": "Replicase polyprotein 1ab, main protease (Feline coronavirus, UniProt Q98VG9)", "HDAC6": "Protein deacetylase HDAC6 (HDAC6, Homo sapiens, UniProt Q9UBN7)", "ADRA2C": "Alpha-2C adrenergic receptor (ADRA2C, Homo sapiens, UniProt P18825)", "note": "Several values in a cell are separate wells, animals, samples, runs or records.", "chain of UniProt Q9BY41 (whole entry, looked up)": "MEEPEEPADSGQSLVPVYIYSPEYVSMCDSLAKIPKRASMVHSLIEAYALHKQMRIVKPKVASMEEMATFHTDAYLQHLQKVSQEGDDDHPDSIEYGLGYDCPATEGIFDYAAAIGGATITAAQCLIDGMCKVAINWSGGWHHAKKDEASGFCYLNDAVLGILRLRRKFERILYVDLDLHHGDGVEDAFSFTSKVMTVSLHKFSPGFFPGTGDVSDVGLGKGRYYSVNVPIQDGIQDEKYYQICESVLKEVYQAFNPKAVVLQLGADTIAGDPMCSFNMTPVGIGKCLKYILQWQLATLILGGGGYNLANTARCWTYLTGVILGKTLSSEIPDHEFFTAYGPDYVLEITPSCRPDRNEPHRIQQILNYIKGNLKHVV", "chain of UniProt P18825 (whole entry, looked up)": "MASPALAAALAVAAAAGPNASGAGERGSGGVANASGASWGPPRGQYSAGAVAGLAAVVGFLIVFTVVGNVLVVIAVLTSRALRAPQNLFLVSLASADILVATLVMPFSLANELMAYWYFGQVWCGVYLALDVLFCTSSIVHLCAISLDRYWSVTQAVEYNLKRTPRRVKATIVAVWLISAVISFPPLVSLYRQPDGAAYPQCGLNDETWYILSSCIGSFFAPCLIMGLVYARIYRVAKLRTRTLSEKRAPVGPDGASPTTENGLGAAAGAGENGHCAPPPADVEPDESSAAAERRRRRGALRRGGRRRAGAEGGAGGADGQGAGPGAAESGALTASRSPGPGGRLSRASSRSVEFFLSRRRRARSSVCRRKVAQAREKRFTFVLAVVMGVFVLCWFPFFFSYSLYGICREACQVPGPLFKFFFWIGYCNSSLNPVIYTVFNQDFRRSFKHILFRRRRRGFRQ", "chain of UniProt Q9UBN7 (whole entry, looked up)": "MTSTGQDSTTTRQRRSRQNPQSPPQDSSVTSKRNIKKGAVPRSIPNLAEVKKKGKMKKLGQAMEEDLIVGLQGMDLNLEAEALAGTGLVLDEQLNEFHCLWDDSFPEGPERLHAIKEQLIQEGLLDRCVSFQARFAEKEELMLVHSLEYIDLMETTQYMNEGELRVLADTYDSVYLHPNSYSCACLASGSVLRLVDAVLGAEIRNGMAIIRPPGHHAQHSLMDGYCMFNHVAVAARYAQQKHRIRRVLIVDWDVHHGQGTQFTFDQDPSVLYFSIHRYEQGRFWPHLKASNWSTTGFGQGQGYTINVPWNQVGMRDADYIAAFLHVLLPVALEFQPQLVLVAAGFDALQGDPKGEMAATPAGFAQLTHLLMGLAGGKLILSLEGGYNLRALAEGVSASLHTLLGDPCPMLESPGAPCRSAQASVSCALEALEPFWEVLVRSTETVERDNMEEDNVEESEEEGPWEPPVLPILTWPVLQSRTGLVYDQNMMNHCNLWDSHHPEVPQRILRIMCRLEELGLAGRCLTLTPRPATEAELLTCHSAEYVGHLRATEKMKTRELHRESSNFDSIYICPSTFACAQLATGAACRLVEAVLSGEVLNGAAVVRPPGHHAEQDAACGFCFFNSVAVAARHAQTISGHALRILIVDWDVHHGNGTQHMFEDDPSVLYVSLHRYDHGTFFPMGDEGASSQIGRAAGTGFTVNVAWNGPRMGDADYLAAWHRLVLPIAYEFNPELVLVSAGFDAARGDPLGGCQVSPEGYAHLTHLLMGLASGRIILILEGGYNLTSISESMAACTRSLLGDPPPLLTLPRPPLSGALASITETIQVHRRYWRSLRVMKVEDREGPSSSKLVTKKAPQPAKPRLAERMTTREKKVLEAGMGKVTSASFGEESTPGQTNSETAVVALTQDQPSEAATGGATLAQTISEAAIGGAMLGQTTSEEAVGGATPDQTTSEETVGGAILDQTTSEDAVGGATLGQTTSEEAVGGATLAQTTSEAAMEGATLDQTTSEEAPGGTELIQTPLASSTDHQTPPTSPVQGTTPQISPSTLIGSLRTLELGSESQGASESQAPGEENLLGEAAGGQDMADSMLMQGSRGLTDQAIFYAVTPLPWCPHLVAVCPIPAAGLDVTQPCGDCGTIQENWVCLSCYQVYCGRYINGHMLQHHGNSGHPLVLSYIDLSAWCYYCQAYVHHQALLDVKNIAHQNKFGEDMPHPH", "chain of UniProt P22059 (whole entry, looked up)": "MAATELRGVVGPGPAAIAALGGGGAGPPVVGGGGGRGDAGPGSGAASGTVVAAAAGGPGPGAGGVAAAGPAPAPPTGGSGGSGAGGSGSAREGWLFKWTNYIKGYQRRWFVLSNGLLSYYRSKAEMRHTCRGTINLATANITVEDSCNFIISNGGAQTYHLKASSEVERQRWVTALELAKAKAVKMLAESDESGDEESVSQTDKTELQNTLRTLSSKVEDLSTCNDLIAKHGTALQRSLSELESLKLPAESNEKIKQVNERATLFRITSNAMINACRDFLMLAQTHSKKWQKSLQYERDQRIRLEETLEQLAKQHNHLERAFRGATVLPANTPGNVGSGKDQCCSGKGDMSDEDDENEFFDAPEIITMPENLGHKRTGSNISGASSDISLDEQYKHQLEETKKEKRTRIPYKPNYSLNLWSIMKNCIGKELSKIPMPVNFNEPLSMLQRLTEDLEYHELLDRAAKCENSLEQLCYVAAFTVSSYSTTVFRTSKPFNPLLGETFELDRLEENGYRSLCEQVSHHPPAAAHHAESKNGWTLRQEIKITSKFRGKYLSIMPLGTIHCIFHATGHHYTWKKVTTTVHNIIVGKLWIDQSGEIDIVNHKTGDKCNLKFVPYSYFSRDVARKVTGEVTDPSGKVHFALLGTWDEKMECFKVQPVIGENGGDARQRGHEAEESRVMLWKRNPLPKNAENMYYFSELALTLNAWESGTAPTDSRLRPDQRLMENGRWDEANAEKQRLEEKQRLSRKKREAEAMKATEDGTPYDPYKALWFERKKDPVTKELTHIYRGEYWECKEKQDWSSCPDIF", "chain of UniProt P18089 (whole entry, looked up)": "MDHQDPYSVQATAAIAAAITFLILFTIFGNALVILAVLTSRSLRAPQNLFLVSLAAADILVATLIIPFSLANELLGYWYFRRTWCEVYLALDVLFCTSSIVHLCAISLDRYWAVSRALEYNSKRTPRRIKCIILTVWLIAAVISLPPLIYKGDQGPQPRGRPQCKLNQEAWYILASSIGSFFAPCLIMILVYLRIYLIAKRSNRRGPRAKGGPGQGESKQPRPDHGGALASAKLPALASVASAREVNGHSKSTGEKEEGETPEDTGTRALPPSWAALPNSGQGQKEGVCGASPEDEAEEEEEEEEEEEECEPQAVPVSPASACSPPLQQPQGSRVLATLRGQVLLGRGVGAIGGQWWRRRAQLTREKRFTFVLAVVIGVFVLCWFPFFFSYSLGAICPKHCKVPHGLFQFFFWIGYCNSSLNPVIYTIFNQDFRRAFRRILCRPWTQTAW", "chain of UniProt P35348 (whole entry, looked up)": "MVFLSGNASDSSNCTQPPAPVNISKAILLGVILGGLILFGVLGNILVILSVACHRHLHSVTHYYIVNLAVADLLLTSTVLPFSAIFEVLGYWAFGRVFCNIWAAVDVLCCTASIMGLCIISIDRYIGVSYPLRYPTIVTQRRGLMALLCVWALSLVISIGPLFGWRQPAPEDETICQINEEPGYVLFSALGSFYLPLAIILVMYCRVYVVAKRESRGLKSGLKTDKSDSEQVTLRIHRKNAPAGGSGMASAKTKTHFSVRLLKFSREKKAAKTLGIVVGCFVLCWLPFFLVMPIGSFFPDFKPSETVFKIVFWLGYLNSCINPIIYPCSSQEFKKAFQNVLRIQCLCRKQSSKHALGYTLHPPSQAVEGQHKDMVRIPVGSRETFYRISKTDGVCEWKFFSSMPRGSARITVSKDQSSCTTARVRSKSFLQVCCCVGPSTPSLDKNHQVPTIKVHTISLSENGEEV", "chain of UniProt P16257 (whole entry, looked up)": "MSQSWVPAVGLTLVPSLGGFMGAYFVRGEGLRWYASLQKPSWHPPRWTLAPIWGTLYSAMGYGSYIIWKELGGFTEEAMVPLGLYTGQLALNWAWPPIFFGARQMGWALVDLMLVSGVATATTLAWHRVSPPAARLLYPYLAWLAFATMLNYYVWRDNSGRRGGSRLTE", "chain of UniProt P14416 (whole entry, looked up)": "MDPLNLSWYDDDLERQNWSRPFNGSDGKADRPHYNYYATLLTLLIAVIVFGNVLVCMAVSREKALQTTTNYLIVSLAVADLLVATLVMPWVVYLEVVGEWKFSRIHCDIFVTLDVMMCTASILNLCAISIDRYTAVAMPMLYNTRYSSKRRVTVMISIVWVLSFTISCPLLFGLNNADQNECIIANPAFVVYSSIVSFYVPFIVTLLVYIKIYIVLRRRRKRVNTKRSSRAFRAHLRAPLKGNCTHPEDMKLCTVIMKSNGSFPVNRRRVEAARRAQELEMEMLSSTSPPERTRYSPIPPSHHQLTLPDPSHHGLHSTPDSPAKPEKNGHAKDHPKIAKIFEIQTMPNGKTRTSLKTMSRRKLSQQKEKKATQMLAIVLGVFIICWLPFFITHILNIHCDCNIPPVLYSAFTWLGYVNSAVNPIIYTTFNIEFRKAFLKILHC", "chain of UniProt Q5BJF2 (whole entry, looked up)": "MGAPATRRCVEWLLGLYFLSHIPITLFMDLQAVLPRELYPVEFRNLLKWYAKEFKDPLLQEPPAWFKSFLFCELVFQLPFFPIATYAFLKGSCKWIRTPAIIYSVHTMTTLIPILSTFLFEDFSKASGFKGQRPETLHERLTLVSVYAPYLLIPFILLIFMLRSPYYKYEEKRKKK", "chain of UniProt O43570 (whole entry, looked up)": "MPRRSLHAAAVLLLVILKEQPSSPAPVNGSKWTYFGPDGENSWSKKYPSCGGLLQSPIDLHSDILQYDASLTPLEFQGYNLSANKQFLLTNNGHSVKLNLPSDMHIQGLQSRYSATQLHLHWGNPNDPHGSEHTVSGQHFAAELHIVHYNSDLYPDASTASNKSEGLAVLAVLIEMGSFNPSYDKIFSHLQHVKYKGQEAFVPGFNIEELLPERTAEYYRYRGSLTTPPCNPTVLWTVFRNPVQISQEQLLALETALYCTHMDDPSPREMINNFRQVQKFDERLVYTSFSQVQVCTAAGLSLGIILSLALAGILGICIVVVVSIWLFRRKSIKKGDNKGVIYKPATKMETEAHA"}
{"Compound": "Cc1nc2n(c(=O)c1CCN1CCC(c3noc4cc(F)ccc34)CC1)CCCC2O (stereo not drawn)", "target": "DRD2 (Homo sapiens, UniProt P14416)", "test": "cell-free assay", "Ki": "7.39 nM and 8.18 nM"}
{"Compound": "CCOc1ccc(C(=O)CC(SCc2ccc(Cl)cc2)C(=O)O)cc1OCC (stereo not drawn)", "target": "OSBP", "test": "ligand displacement, FP", "Ki": "220000 nM"}
{"Compound": "COc1ccc(Cl)cc1N1CCN(Cc2cccnc2Oc2ccc(-c3c(C)c(=O)[nH]c(=O)n3C)c(C)c2)CC1", "target": "ADRA2B", "test": "ligand displacement, radioligand", "Ki": "100 nM"}
{"Compound": "CCOc1ccc(C(=O)CC(SCc2ccc(F)cc2)C(=O)O)cc1 (stereo not drawn)", "target": "OSBP", "test": "ligand displacement, FP", "Ki": "236000 nM"}
{"Compound": "N#C[C@@]12C[C@@H]1[C@@H](n1cnc3c(N[C@H](C4CCC4)C4CC4)nc(I)nc31)[C@H](O)[C@@H]2O", "target": "HTR2C (Homo sapiens, UniProt P28335)", "test": "ligand displacement, radioligand", "Ki": "85 nM"}
{"Compound": "CCOc1ccc(C(=O)CC(SCc2ccc(Cl)cc2)C(=O)O)cc1 (stereo not drawn)", "target": "OSBP", "test": "ligand displacement, FP", "Ki": "238000 nM"}
{"Compound": "O=C1CCc2ccccc2O1", "target": "CA12 (Homo sapiens, UniProt O43570)", "test": "enzyme activity, inhibitor, stopped-flow", "Ki": "2800 nM"}
{"Compound": "CC(C)c1ccc(OS(=O)(=O)Oc2cccc(C(=O)NO)c2)cc1", "target": "HDAC8", "test": "enzyme activity, inhibitor, fluorescence", "Ki": "829 nM"}
{"Compound": "Cc1ccc(N2CCN(Cc3cccnc3Oc3ccc(-c4c(C)c(=O)[nH]c(=O)n4C)c(C)c3)CC2)cc1C", "target": "ADRA2B", "test": "ligand displacement, radioligand", "Ki": "210 nM"}
{"Compound": "Cc1cc(OS(=O)(=O)Oc2ccccc2)cc(C(=O)NO)c1", "target": "HDAC8", "test": "enzyme activity, inhibitor, fluorescence", "Ki": "3990 nM"}
{"Compound": "CNc1nc(C#Cc2ccc(Cl)s2)nc2c1ncn2[C@H]1[C@H](O)[C@H](O)[C@]2(C(=O)OC)C[C@H]12", "target": "Tspo", "test": "ligand displacement, radioligand", "Ki": "> 10000 nM"}
{"Compound": "O=C(NO)c1cncc(OS(=O)(=O)Oc2ccc(C(F)(F)F)cc2)c1", "target": "HDAC1 (Homo sapiens, UniProt Q13547)", "test": "enzyme activity, inhibitor, fluorescence", "Ki": "621 nM"}
{"Compound": "Cc1ccc2[nH]c(=O)c(CNC3CCCCC3)cc2c1", "target": "ADRA1A", "test": "ligand displacement in cells", "Ki": "468 nM"}
{"Compound": "CCOc1ccc(C(=O)CC(SCc2ccccc2Br)C(=O)O)cc1 (stereo not drawn)", "target": "OSBP", "test": "ligand displacement, FP", "Ki": "185000 nM"}
{"Compound": "Cc1ccc(S(=O)(=O)N/N=C\\C=C\\c2ccccc2)cc1", "target": "Replicase polyprotein 1ab main protease", "test": "enzyme activity, inhibitor, fluorescence", "Ki": "48800 nM"}
{"Compound": "O=C(/C=C/c1cccc(OS(=O)(=O)Oc2ccccc2)c1)NO", "target": "HDAC6", "test": "enzyme activity, inhibitor, fluorescence", "Ki": "273 nM"}
{"Compound": "C#CCN(CCCN1CCN(c2ccc(F)cc2)CC1)Cc1ccc(C(=O)c2ccc([N+](=O)[O-])cc2)cc1", "target": "TMEM97 (Homo sapiens, UniProt Q5BJF2)", "test": "ligand displacement, radioligand", "setting": "cell membranes", "Ki": "70 nM and 69.4 nM"}
{"Compound": "CCOc1ccc(C(=O)CC(SCc2cccc(Br)c2)C(=O)O)cc1 (stereo not drawn)", "target": "OSBP", "test": "ligand displacement, FP", "Ki": "99000 nM"}
{"Compound": "OC[C@@]12C[C@@H]1[C@@H](n1cnc3c(NCCCCCCc4ccccc4)nc(I)nc31)[C@H](O)[C@@H]2O", "target": "SLC6A4 (Homo sapiens, UniProt P31645)", "test": "ligand displacement, radioligand", "Ki": "2500 nM"}
{"Compound": "O=C(NO)c1cc(F)cc(OS(=O)(=O)Oc2ccccc2)c1", "target": "HDAC6", "test": "enzyme activity, inhibitor, fluorescence", "Ki": "34 nM"}
{"Compound": "Cc1cc(Oc2ncccc2CN2CCN(c3ccc(C(F)(F)F)cc3[N+](=O)[O-])CC2)ccc1-c1c(C)c(=O)[nH]c(=O)n1C", "target": "ADRA2C", "test": "ligand displacement, radioligand", "Ki": "794 nM"}
{"Compound": "COc1cc(O)c2c(=O)cc(-c3ccc(O)c(O)c3)oc2c1", "target": "Replicase polyprotein 1ab main protease", "test": "enzyme activity, inhibitor, fluorescence", "Ki": "16700 nM"}
{"Compound": "Cc1cc(Oc2ncccc2CN2CCN(CCc3ccccc3)CC2)ccc1-c1c(C)c(=O)[nH]c(=O)n1C", "target": "ADRA2C", "test": "ligand displacement, radioligand", "Ki": "151 nM"}
{"Compound": "O=c1cc(-c2ccc(O)c(O)c2)oc2cc(O[C@@H]3O[C@H](CO)[C@@H](O)[C@H](O)[C@H]3O)cc(O)c12", "target": "LDHA (Homo sapiens, UniProt P00338)", "test": "enzyme activity, inhibitor", "Ki": "68000 nM"}
{"Compound": "Cc1cc(Oc2ncccc2CN2CCN(c3ncccc3C(F)(F)F)CC2)ccc1-c1c(C)c(=O)[nH]c(=O)n1C", "target": "ADRA2B", "test": "ligand displacement, radioligand", "Ki": "29 nM"}
{"Compound": "CCCCC(=O)Nc1ccc(-c2ccc3ncn(CCC)c(=O)c3c2)cn1", "target": "PIP4K2A (Homo sapiens, UniProt P48426)", "test": "enzyme activity, inhibitor, radiometric", "Ki": "> 20000 nM"}
{"Compound": "O=C(NO)c1cncc(OS(=O)(=O)Oc2ccc(-n3ccnc3)cc2)c1", "target": "HDAC8", "test": "enzyme activity, inhibitor, fluorescence", "Ki": "436 nM"}
{"Compound": "Cc1cc(Oc2ncccc2CN2CCN(c3cccc(C)c3C)CC2)ccc1-c1c(C)c(=O)[nH]c(=O)n1C", "target": "ADRA1A", "test": "ligand displacement, radioligand", "Ki": "2240 nM"}
{"Compound": "COc1ccc(CN2CC(COc3ccc(F)cc3)CC(F)(F)C2)cc1F (stereo not drawn)", "target": "DRD4 (Homo sapiens, UniProt P21917)", "test": "ligand displacement, radioligand", "setting": "cell membranes", "Ki": "140 nM"}
{"Compound": "COc1ccc(C(=O)CC(SCc2ccc(Cl)cc2)C(=O)O)cc1 (stereo not drawn)", "target": "OSBP", "test": "ligand displacement, FP", "Ki": "320000 nM"}
{"Compound": "CCCOC(=O)[C@@]12C[C@@H]1[C@@H](n1cnc3c(NC)nc(C#Cc4ccc(Cl)s4)nc31)[C@H](O)[C@@H]2O", "target": "OPRD1 (Homo sapiens, UniProt P41143)", "test": "ligand displacement, radioligand", "Ki": "> 10000 nM"}
{"Compound": "CCOc1ccc(-c2cc(C(=O)O)c(-c3ccc(Cl)cc3)o2)cc1", "target": "AKT1 (Homo sapiens, UniProt P31749)", "test": "ligand displacement, FP", "Ki": "6600 nM"}
{"Compound": "CNC(=O)[C@@]12C[C@@H]1[C@@H](n1cnc3c(NC)cc(C#Cc4ccc(Cl)s4)nc31)[C@H](O)[C@@H]2O", "target": "Tspo", "test": "ligand displacement, radioligand", "Ki": "> 10000 nM"}
{"Compound": "CCOC(=O)c1cc(-c2ccc(OCC)cc2)oc1-c1ccc(Cl)cc1", "target": "OSBP", "test": "ligand displacement, FP", "Ki": "> 100000 nM"}
{"Compound": "Cc1cc(Oc2ncccc2CN2CCN(c3ccc(C(F)(F)F)cn3)CC2)ccc1-c1c(C)c(=O)[nH]c(=O)n1C", "target": "ADRA2C", "test": "ligand displacement, radioligand", "Ki": "277 nM"}
{"Compound": "Cc1cc(OS(=O)(=O)Oc2ccc(-n3ccnc3)cc2)cc(C(=O)NO)c1", "target": "HDAC8", "test": "enzyme activity, inhibitor, fluorescence", "Ki": "1340 nM"}
{"Compound": "Cc1cc(Oc2ncccc2CN2CCN(c3cccc(Cl)c3)CC2)ccc1-c1c(C)c(=O)[nH]c(=O)n1C", "target": "ADRA2C", "test": "ligand displacement, radioligand", "Ki": "19.4 nM"}
{"Compound": "O=C(NO)c1cc(F)cc(OS(=O)(=O)Oc2ccc(C(F)(F)F)cc2)c1", "target": "HDAC6", "test": "enzyme activity, inhibitor, fluorescence", "Ki": "251 nM"}
{"Compound": "Cc1nn(C)cc1S(=O)(=O)NC(=O)c1ccc(-n2ccc(OCC(C)(C)C(F)(F)F)n2)nc1N1C[C@@H](C)CC1(C)C", "target": "ABCB11 (Homo sapiens, UniProt O95342)", "test": "transporter uptake, inhibitor", "system": "HEK293", "Ki": "37100 nM"}
{"note": "A few entries again:"}
{"Compound": "Cc1ccc2[nH]c(=O)c(CNC3CCCCC3)cc2c1", "target": "ADRA1A", "test": "ligand displacement in cells", "Ki": "468 nM"}
{"Compound": "CCOc1ccc(C(=O)CC(SCc2ccccc2Br)C(=O)O)cc1 (stereo not drawn)", "target": "OSBP", "test": "ligand displacement, FP", "Ki": "185000 nM"}
{"Compound": "Cc1ccc(S(=O)(=O)N/N=C\\C=C\\c2ccccc2)cc1", "target": "Replicase polyprotein 1ab main protease", "test": "enzyme activity, inhibitor, fluorescence", "Ki": "48800 nM"}
{"Compound": "O=C(/C=C/c1cccc(OS(=O)(=O)Oc2ccccc2)c1)NO", "target": "HDAC6", "test": "enzyme activity, inhibitor, fluorescence", "Ki": "273 nM"}
